# Assay results of several laboratories.
# Compare with care: the assays were run in different laboratories.
# Organism: Pseudomonas aeruginosa
SMILES,test,system,setting,scale,MIC [µg/mL]
CCCCCC/C=C\CCCCCCC[C@@H](O)Cc1cc(O)cc(O)c1,broth microdilution,PAO1 chloramphenicol-resistant,37 °C,,> 64
CC(C)[C@H](NC(=O)[C@H](CCCCN)NC(=O)[C@H](CCCNC(=N)N)NC(=O)CNC(=O)[C@H](C)NC(=O)[C@H](CC(N)=O)NC(=O)[C@H](CCCNC(=N)N)NC(=O)[C@@H](NC(=O)[C@H](CCCCN)NC(=O)[C@H](CC(=O)O)NC(=O)[C@@H](NC(=O)[C@@H](NC(=O)[C@H](CCCNC(=N)N)NC(=O)[C@H](CCCNC(=N)N)NC(=O)[C@H](Cc1c[nH]c2ccccc12)NC(=O)[C@H](Cc1c[nH]c2ccccc12)NC(=O)CN)[C@@H](C)O)C(C)C)C(C)C)C(=O)O,,clinical strain 103,"18 h, 37 °C",,> 256
CCCCCCCC[C@@H]1NC(=O)[C@@H](Cc2ccccc2)NC(=O)[C@H](CCN)NC(=O)[C@@H](NC(=O)[C@H](CCN)NC(=O)[C@@H](NC(=O)[C@H](CCN)NC(=O)c2ccc(-c3ccccc3)cc2)[C@@H](C)O)CCNC(=O)[C@H]([C@@H](C)O)NC(=O)[C@H](CCN)NC(=O)[C@H](CCN)NC1=O,broth microdilution,"ATCC 27853, polymyxin susceptible, CAMHB","18 h, 37 °C",,4
CC(C)[C@@H]1NC(=O)[C@@H]2CCCN2C(=O)[C@@H](C)NC(=O)[C@H](CO)NC(=O)[C@H](C)NC(=O)[C@H](C(C)(C)C)NC(=O)[C@H](CCO)NC(=O)[C@H](Cc2c[nH]c3ccccc23)NC(=O)[C@H](CCO)NC(=O)[C@@H](CCN)NC(=O)[C@H](CCC(N)=O)NC(=O)[C@H](CCN)NC(=O)[C@H](Cc2ccc(O)cc2)NC(=O)[C@H]([C@@H](C)O)NC1=O,broth microdilution,"NDM1, NRZ 08418, CAMHB with polysorbate-80","16 h, 37 °C, with: 0.002% polysorbate-80",,> 64
CC[C@H](C)[C@@H]1NC(=O)[C@H](CC(C)C)NC(=O)[C@@H](NC(=O)[C@H](CO)NC(=O)[C@H](CCCNC(=N)N)NC(=O)[C@@H](N)CO)CSSC[C@H](NC(=O)[C@H](CO)NC(=O)[C@H](CCCNC(=N)N)NC(=O)[C@@H](N)CO)C(=O)N[C@@H](CC(C)C)C(=O)N[C@@H]([C@@H](C)CC)C(=O)N[C@@H](C(C)C)C(=O)N[C@H](C(=O)N[C@@H](CCC(N)=O)C(=O)N[C@@H](CCCNC(=N)N)C(=O)N[C@@H](CC(C)C)C(=O)N[C@@H](Cc2ccccc2)C(N)=O)CSSC[C@@H](C(=O)N[C@@H](CCC(N)=O)C(=O)N[C@@H](CCCNC(=N)N)C(=O)N[C@@H](CC(C)C)C(=O)N[C@@H](Cc2ccccc2)C(N)=O)NC(=O)[C@H](C(C)C)NC1=O,broth microdilution,ATCC 27853,,,> 100
CC(C)C[C@@H]1NC(=O)[C@H](CC(C)C)NC(=O)[C@H](CC(C)C)NC(=O)[C@@H]2CSCC(=O)N[C@@H](CCCCN)C(=O)N[C@@H](CCCCN)C(=O)N[C@@H](CCCCN)C(=O)N[C@@H](CCCCNC(=O)[C@H](CCCCN)NC(=O)[C@H](CCCCN)NC(=O)[C@H](CCCCN)NC(=O)CSC[C@@H](C(=O)N[C@@H](CCCCN)C(N)=O)NC1=O)C(=O)N[C@@H](CCCCN)C(=O)N[C@@H](CC(C)C)C(=O)N[C@@H](CC(C)C)C(=O)N2,,PAO1,18 h,,32
CCCCCCCC(=O)NCCCC[C@@H]1NC(=O)[C@H](CCCNC(=N)N)NC(=O)[C@H](CCCNC(=N)N)NC(=O)[C@H](CCCNC(=N)N)NC(=O)[C@H](CCCNC(=N)N)NC(=O)[C@H](CCCNC(=N)N)NC1=O,broth microdilution,PAO1,37 °C,,> 129
CC[C@H](C)[C@H](NC(=O)[C@H](C)NC(=O)[C@@H](NC(=O)[C@H](CC(=O)O)NC(=O)[C@H](CCCCN)NC(=O)[C@H](CO)NC(=O)[C@@H](NC(=O)[C@H](CC(N)=O)NC(=O)[C@H](C)NC(=O)[C@@H](NC(=O)[C@H](CCC(=O)O)NC(=O)[C@H](CCCCN)NC(=O)[C@@H](NC(=O)[C@@H](NC(=O)[C@H](Cc1c[nH]cn1)NC(=O)[C@H](CCCCN)NC(=O)[C@@H](NC(=O)[C@H](CCCCN)NC(=O)[C@H](CCCCN)NC(=O)[C@@H](NC(=O)[C@H](CC(C)C)NC(=O)[C@H](CCCCN)NC(=O)[C@H](CC(N)=O)NC(=O)[C@H](Cc1ccccc1)NC(=O)[C@H](CCCNC(=N)N)NC(=O)[C@H](CCCCN)NC(=O)[C@H](CCCNC(=N)N)NC(=O)[C@H](Cc1ccccc1)NC(=O)CN)C(C)C)C(C)C)[C@@H](C)O)[C@@H](C)CC)[C@@H](C)O)C(C)C)C(C)C)C(=O)N[C@H](C(=O)N[C@@H](C)C(=O)NCC(=O)N[C@@H](CO)C(=O)NCC(=O)N[C@H](C(=O)N[C@@H](C)C(=O)N[C@H](C(=O)NCC(=O)N[C@@H](C)C(=O)N[C@@H](C)C(=O)N[C@@H](CCSC)C(N)=O)C(C)C)C(C)C)C(C)C,,"isolate RKI 93/12, CAMHB",,,8
CC1C(=NOCc2cn(-c3ccccc3)nn2)C(C)C(c2ccc(Br)cc2)OC1c1ccc(Br)cc1 (stereo not drawn),"microbial growth, broth dilution",MTCC741,24 h,,6.3
COc1cc2c(=O)c(C(=O)NCCNCCO)cn(Cc3ccccc3)c2cc1OCc1cccc(Cl)c1,,ATCC 27853,,≥80% growth inhibition,< 0.25
CC(C)C[C@H](NC(=O)[C@@H]1CSCC(=O)N[C@@H](CCCCN)C(=O)N[C@@H](CC(C)C)C(=O)N[C@@H](CCCCN)C(=O)N[C@H]2CCCCNC(=O)[C@H](CCCCN)NC(=O)[C@H](CC(C)C)NC(=O)[C@H](CCCCN)NC(=O)CSC[C@H](NC(=O)[C@H](CC(C)C)NC(=O)[C@H](CC(C)C)NC(=O)[C@H](CCCCN)NC2=O)C(=O)N[C@@H](CCCCN)C(=O)N[C@@H](CC(C)C)C(=O)N[C@@H](CCCCN)C(=O)N1)C(N)=O,,PAO1,18 h,,> 256
CC[C@H](C)[C@H](NC(=O)[C@@H](CCCNC(=N)N)NC(=O)[C@H](CCCNC(=N)N)NC(=O)[C@H](CCCNC(=N)N)NC(=O)[C@H](Cc1c[nH]c2ccccc12)NC(=O)[C@H](CCCNC(=N)N)NC(=O)[C@@H]1CCCN1C(=O)[C@H](CCCNC(=N)N)NC(=O)[C@@H]1CCCN1C(=O)[C@H](CC(C)C)NC(=O)[C@H](Cc1ccc(O)cc1)NC(=O)[C@@H]1CCCN1C(=O)[C@@H]1CCCN1C(=O)[C@H](CCCCN)NC(=O)[C@H](CC(=O)O)NC(=O)[C@@H](N)C(C)C)C(=O)N[C@@H](Cc1ccc(O)cc1)C(=O)N[C@@H](CC(N)=O)C(=O)N[C@H](CCCNC(=N)N)C(N)=O,broth microdilution,DSM 1117,18 h,,32

# Repeated from above:
SMILES,test,system,setting,scale,MIC [µg/mL]
CC(C)[C@H](NC(=O)[C@H](CCCCN)NC(=O)[C@H](CCCNC(=N)N)NC(=O)CNC(=O)[C@H](C)NC(=O)[C@H](CC(N)=O)NC(=O)[C@H](CCCNC(=N)N)NC(=O)[C@@H](NC(=O)[C@H](CCCCN)NC(=O)[C@H](CC(=O)O)NC(=O)[C@@H](NC(=O)[C@@H](NC(=O)[C@H](CCCNC(=N)N)NC(=O)[C@H](CCCNC(=N)N)NC(=O)[C@H](Cc1c[nH]c2ccccc12)NC(=O)[C@H](Cc1c[nH]c2ccccc12)NC(=O)CN)[C@@H](C)O)C(C)C)C(C)C)C(=O)O,,clinical strain 103,"18 h, 37 °C",,> 256
